Published values of several laboratories.
Protocols differ between the studies behind these lines. ± gives the spread as reported.

| SMILES | tested on | assay | test system | setting | measurement | value |
| --- | --- | --- | --- | --- | --- | --- |
| COc1ccc(CNc2nc(N3CCC[C@H]3CO)ncc2C(=O)NN)cc1Cl | Salmonella typhimurium |  | TA98 | 500 µg/plate, 48 h, with: rat liver S9 | revertant count | 37 ± 2 |
| CN(C)CC1CCCCC1(O)c1cccc(O)c1 (stereo not drawn) | Caco-2 TC7 |  |  | 3 h, pH 6.8 apical, 7.4 basolateral, range over 1 to 100 µM | efflux ratio | 1.8 to 2.3 |
| C[C@@](O)(C(F)F)[C@H](NC(=O)c1ccc(C#CC#CC2CC2)cc1)C(=O)NO |  |  | dog, plasma | intravenous, 100 mg/kg | Cmax | 100 µg/mL |
| CSCC[C@@H]1NC(=O)[C@@H]2CSSC[C@H](NC(=O)[C@H](CO)NC(=O)[C@H](C)N)C(=O)N[C@@H](CCCNC(=N)N)C(=O)N[C@@H]([C@@H](C)O)C(=O)N3CCC[C@H]3C(=O)N[C@@H](CCCCN)C(=O)N[C@@H](CC(=O)O)C(=O)N[C@H]3CSSC[C@H](NC(=O)[C@H](CCCCN)NC(=O)[C@H](CCCNC(=N)N)NC(=O)[C@H](CC(N)=O)NC1=O)C(=O)N[C@@H](CCCCN)C(=O)N[C@H]1CSSC[C@H](NC(=O)[C@@H]4CCCN4C(=O)[C@H](CC(=O)O)NC(=O)[C@H](C)NC3=O)C(=O)N[C@@H](C)C(=O)N[C@@H](CCCCN)C(=O)N[C@@H](CCC(=O)O)C(=O)N[C@@H]([C@@H](C)O)C(=O)NCC(=O)N[C@@H](CSSC[C@@H](C(N)=O)NC(=O)[C@H](CCCNC(=N)N)NC(=O)[C@H](CC(N)=O)NC1=O)C(=O)N1CCC[C@H]1C(=O)N[C@@H](Cc1ccc(O)cc1)C(=O)NCC(=O)N[C@@H](CCCCN)C(=O)N2 |  |  | DA rat, pristane-induced arthritis, serum | subcutaneous, 0.1 mg/kg once weekly, end of 21-day trial | osmolality | 288 mOsm/kg |
| CC[C@H](C)C(=O)N1CCC(NC(=O)Nc2ccc(OC(F)(F)F)c(F)c2)CC1 |  |  | human, plasma | oral, 2 mg, single dose, healthy volunteers | AUC(0-t) | 258 ng·h/mL |
| COc1cc(C(=O)NCCOCCOCCOCCNC(=O)c2ccc([18F])nc2)ccc1NC(=O)C1NC(CC(C)(C)C)C(C#N)(c2ccc(Cl)cc2F)C1c1cccc(Cl)c1F (stereo not drawn) | SJSA-1 tumour model |  | host not given, heart | 1 h, tumour-bearing | tracer uptake | 1.16 %ID/g |
| CCC(=O)N(C)c1ccc(Cl)c(Cl)c1 | Salmonella typhimurium | Ames test | TA1537 | 1.00 mg/plate, with rat liver S9 | revertants | 3 ± 1.5 revertants/plate |
| COc1ccc(CNc2nc(N3CCC[C@H]3CO)ncc2C(=O)NNC(=O)c2cnc(N3CCC[C@H]3CO)nc2NCc2ccc(OC)c(Cl)c2)cc1Cl | Salmonella typhimurium |  | TA102 | 1000 µg/plate, with: rat liver S9 | revertant count | 172 ± 22 |
| CN[C@](C)(C[18F])C(=O)O | DU-145 tumour model |  | host not given, liver | 2 h, tumour-bearing | tracer uptake | 3.5 %ID/g |
